{"data": "Measured values collected from several papers", "note": "Parts stem from different laboratories: compare values within a part only. Substitutions count along the parent as printed."}
{"data": "Study 1", "target": "5-hydroxytryptamine receptor 2C (HTR2C, Homo sapiens, UniProt P28335)", "observed": "ligand displacement", "concentration": "10 µM", "chain of UniProt P28335 (whole entry, looked up)": "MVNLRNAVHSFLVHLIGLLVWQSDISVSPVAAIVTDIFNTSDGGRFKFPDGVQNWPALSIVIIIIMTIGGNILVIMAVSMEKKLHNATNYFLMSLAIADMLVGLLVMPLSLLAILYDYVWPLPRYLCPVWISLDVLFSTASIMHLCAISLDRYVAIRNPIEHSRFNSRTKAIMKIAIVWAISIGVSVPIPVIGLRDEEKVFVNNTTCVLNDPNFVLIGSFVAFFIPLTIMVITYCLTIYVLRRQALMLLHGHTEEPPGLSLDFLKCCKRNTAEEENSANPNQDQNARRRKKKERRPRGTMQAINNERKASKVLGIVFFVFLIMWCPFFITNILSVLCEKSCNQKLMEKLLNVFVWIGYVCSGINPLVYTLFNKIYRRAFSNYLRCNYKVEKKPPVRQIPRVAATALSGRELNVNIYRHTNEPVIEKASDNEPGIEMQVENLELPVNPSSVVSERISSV"}
{"Structure (SMILES)": "C[C@H](c1ccnc(Nc2nc3ccc(-c4cc(N(C)C)ncn4)cc3[nH]2)c1)N1CCN(C(=O)CC(F)(F)F)CC1", "inhibition [%]": 11.4}
{"Structure (SMILES)": "CN1CCN(C(=O)C(C)(C)c2ccc(C(=O)Nc3cn4cc(-c5cc(C(C)(C)C)cc(C(C)(C)C)c5)ccc4n3)cc2)CC1", "inhibition [%]": 83}
{"Structure (SMILES)": "CCOc1cc(N2C3COCC2CN(C(=O)[C@H]2C[C@H](O)CN2c2ccc(Cl)cc2)C3)ccc1Cl", "inhibition [%]": 4.08}
{"Structure (SMILES)": "COc1cc(C(=O)O)ncc1C#Cc1ccccc1NS(=O)(=O)c1cccc2c(N(C)C)ccnc12", "inhibition [%]": 7.95}
{"Structure (SMILES)": "Nc1nc(NCc2ccccc2)nc(-c2ccccc2CO)n1", "inhibition [%]": 9.32}
{"Structure (SMILES)": "c1ccc(C2CCN(c3cnc4c(N5CCOCC5)nccn34)CC2)cc1", "inhibition [%]": 5.92}
{"Structure (SMILES)": "CC(=O)Nc1nc(CN2CCC[C@H](Cc3cc(C)nc(C)c3)C2)cs1", "inhibition [%]": 16.3}
{"Structure (SMILES)": "Cc1c(NC(=O)c2cc(C(N)=O)nc3cc(F)ccc23)c(C(F)(F)F)nn1Cc1ccc(C#N)cc1", "inhibition [%]": 6.9}
{"Structure (SMILES)": "COCCOc1nc(-c2ccc(Cl)nc2)nc2c1CN(C(=O)c1ncn3ccccc13)CC2", "inhibition [%]": 13.3}
{"Structure (SMILES)": "CNC(=O)Nc1ccc2c(c1)CC[C@]21OC(=O)N(CC(=O)N(Cc2ccc(F)cc2)[C@@H](C)C(F)(F)F)C1=O", "inhibition [%]": 16.5}
{"Structure (SMILES)": "CO[C@H]1CC[C@H](CNc2ccc(S(=O)(=O)NC(=O)c3ccc(N4CCN(CC5=C(c6ccc(Cl)cc6)CC(C)(C)CC5)CC4)cc3Oc3cnc4[nH]ccc4c3)cc2[N+](=O)[O-])CC1", "inhibition [%]": -4.69}
{"Structure (SMILES)": "CC(=O)N1CCC(c2ccc(C(=O)NC3=NCCN3)cc2C(F)(F)F)CC1", "inhibition [%]": -2.86}
{"Structure (SMILES)": "Cc1cc2c(-c3ccco3)cnc(N[C@H]3CCN(C)C[C@@H]3C(=O)NC3CCCCC3)c2[nH]c1=O", "inhibition [%]": 3.86}
{"data": "Study 2", "Sequence": "AAAVRKPIVLKR", "form": "peptide", "direction": "direction not given"}
{"tested on": "Saccharomyces cerevisiae", "test": "growth after mating arrest, competitive growth deep sequencing", "conditions": "strain without Cln2 fusion", "enrichment score": -0.176}
{"tested on": "Saccharomyces cerevisiae", "test": "binding, yeast competitive growth sequencing", "system": "cyclin D1-Cln2 strain, peptide tiling library", "enrichment score": 1.23}
{"test": "peptide binding", "system": "yeast competitive growth", "conditions": "together with: B2-Cln2 chimera", "enrichment score": -0.249}
{"tested on": "Saccharomyces cerevisiae", "test": "binding, competitive growth deep sequencing", "system": "cyclin D3-Cln2 fusion strain", "conditions": "peptide tiling library", "enrichment score": 0.044}
{"data": "Study 3", "target": "vanadate, free oxyanion", "technique": "microfluidic competitive inhibition", "sample": "in vitro, cell-free expressed", "concentration": "not given", "notes": "derived from inhibition constants, unchanged parent 676 nM", "direction": "lower = stronger binding", "starting sequence": "PafA, mature enzyme, eGFP fusion (Elizabethkingia meningoseptica, UniProt Q9KJX5); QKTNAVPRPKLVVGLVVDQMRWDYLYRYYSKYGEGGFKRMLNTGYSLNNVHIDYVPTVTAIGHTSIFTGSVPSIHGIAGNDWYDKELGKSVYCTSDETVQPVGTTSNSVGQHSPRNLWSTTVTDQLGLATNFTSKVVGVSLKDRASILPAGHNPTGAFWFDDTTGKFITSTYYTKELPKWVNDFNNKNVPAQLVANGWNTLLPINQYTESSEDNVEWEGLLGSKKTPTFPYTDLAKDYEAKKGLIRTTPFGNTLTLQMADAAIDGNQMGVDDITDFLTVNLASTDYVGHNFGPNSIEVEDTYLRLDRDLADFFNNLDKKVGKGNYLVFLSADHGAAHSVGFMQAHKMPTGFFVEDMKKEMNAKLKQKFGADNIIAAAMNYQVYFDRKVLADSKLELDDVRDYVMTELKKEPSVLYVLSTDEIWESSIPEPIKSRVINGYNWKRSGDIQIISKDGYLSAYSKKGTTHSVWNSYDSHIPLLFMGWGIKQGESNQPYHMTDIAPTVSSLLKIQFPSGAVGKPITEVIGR"}
{"Variant": "P154V", "oxyanion analog dissociation constant": "777 nM"}
{"Variant": "M496V", "oxyanion analog dissociation constant": "743 nM"}
{"Variant": "T502V", "oxyanion analog dissociation constant": "1.71 µM"}
{"Variant": "Q492V", "oxyanion analog dissociation constant": "628 nM"}
{"Variant": "M360G", "oxyanion analog dissociation constant": "787 nM"}
{"Variant": "S490G", "oxyanion analog dissociation constant": "723 nM"}
{"Variant": "P101G", "oxyanion analog dissociation constant": "727 nM"}
{"Variant": "F351V", "oxyanion analog dissociation constant": "789 nM"}
{"data": "Other studies, line by line"}
{"SMILES": "C=C(C)CN1CC[C@]23c4c5ccc(O)c4O[C@H]2c2[nH]c4ccccc4c2C[C@@]3(O)C1C5.Cl.O", "tested on": "Sarcocystis neurona", "test": "parasite growth", "conditions": "concentration not given, first screen", "how to read": "reference: untreated", "endpoint": "log2 fold change", "value": -0.63}
{"SMILES": "C#C[C@]1(O)CC[C@H]2[C@@H]3CCC4=CC(=O)CC[C@]4(C)[C@H]3CC[C@@]21C", "tested on": "HaCaT", "conditions": "100 µM, 60 h", "endpoint": "viability", "value": "93.2%"}
{"SMILES": "COC(=O)N1CCN(C(=O)Cc2ccc(Cl)c(Cl)c2)C(CN2CCCC2)C1.O=C(O)/C=C/C(=O)O (stereo not drawn)", "tested on": "Sarcocystis neurona", "test": "parasite growth", "conditions": "concentration not given, first screen", "how to read": "reference: untreated", "endpoint": "log2 fold change", "value": -0.08}
{"SMILES": "Cc1n[nH]c2c1C(c1c(Cl)nc3sccn13)SCC(O)=N2 (stereo not drawn)", "system": "human, microsomes or S9", "conditions": "2 µM, 0.5 h", "endpoint": "remaining compound", "value": "70.6%"}
{"SMILES": "OC[C@@H](O)[C@@H](O)[C@H](O)[C@@H](O)CO", "tested on": "HEK-293T/ACE2", "conditions": "concentration not given, 16 (unit not given)", "how to read": "reference: vehicle", "endpoint": "viability", "value": "101%"}
{"note": "A few entries again (study 1):"}
{"Structure (SMILES)": "CO[C@H]1CC[C@H](CNc2ccc(S(=O)(=O)NC(=O)c3ccc(N4CCN(CC5=C(c6ccc(Cl)cc6)CC(C)(C)CC5)CC4)cc3Oc3cnc4[nH]ccc4c3)cc2[N+](=O)[O-])CC1", "inhibition [%]": -4.69}
{"Structure (SMILES)": "Cc1cc2c(-c3ccco3)cnc(N[C@H]3CCN(C)C[C@@H]3C(=O)NC3CCCCC3)c2[nH]c1=O", "inhibition [%]": 3.86}
